Assay results from different studies.
Every numbered part comes from another study and shows a few of its results, in no order. Substitutions count along the parent as printed.

Sample 1
Organism: Saccharomyces cerevisiae
Read-out: peptide binding
Method: yeast competitive growth sequencing
Molecule type: peptide
Strain: cyclin E2-Cln2 fusion
Concentration: concentration not given
Notes: combined libraries
Direction: direction not given
Endpoint: binding score
GSPLKALFTSTGL: -0.0107
GSPLKKLFTSTGA: 0.0721
GSPLKKLFTATGL: 0.5

Sample 2
Target: Histone acetyltransferase KAT6A, winged helix 1, GST fusion (KAT6A, Homo sapiens, UniProt Q92794, residues 1-85)
Method: protein binding microarray
Molecule type: double-stranded DNA, one strand shown
Sample: in vitro
Concentration: not given
Notes: 8-mer, flanks averaged, mean of 2 arrays, mostly near background
Reference: not given
Direction: higher = stronger binding
Endpoint: E-score
Construct (chain): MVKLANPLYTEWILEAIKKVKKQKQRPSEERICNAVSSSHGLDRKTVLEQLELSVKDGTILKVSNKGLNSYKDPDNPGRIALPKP
CCTCCCGC: 0.309
AGCGCCCC: 0.157
CAGAATGC: 0.174
CCGTCCCC: 0.21
GAAAAAAC: -0.147
GAACCTTA: -0.0874
CTAGTGCC: 0.216
GACATTTA: -0.145
TCTGATAA: -0.199
ATGCCCGG: 0.281
ACGCCACC: -0.0108
AATCCTAG: -0.215
TAGACTGA: -0.0262
ATCAAGCG: 0.226
CGCTGGGA: -0.0302
GGGCCGAC: 0.249

Sample 3
Target: Ras GTPase-activating protein-binding protein 1, C-terminal RGG region (G3BP1, Homo sapiens, UniProt Q13283)
Sequence of UniProt Q13283 (whole entry, looked up): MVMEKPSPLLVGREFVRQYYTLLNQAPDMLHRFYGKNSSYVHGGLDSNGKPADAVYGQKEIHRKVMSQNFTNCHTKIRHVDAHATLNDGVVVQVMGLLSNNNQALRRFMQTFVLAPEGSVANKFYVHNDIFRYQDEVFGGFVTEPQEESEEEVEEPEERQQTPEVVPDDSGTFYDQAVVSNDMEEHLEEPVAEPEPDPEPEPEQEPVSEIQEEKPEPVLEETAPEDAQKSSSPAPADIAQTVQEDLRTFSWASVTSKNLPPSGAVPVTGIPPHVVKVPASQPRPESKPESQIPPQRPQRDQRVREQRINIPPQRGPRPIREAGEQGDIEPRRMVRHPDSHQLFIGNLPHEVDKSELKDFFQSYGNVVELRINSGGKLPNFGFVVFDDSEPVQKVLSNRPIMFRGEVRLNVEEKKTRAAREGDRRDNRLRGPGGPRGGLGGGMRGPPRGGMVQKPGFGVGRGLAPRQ
Method: RNA Bind-n-Seq
Molecule type: RNA
Sample: in vitro
Concentration: 1 µM
Notes: whole 134-nt RNA, ends assumed
Together with: 150 mM KCl
Reference: input library
Direction: higher = stronger binding
Endpoint: log2 enrichment
Shared flanks, not repeated: GGGAGUUCUACAGUCCGACGAUC … UGGAAUUCUCGGGUGUCAAGG
UAACUUUAGAGGAGGAUCUGAUGGAUAUGGCAGUGGACGUGGAUUUGGGGAUGGCUAUAAUGGGUAUGGAGGAGGACCUGGCGGUGGCAA: -0.628
CCUGUGCUACACAUCGUAUGUACCGAAUCGGGGUUUUUGGGGUUUUUGGGGUUUUUGGGGAAAGUAUUAUGUUACGCCGUUCGGAUCUGC: 0.637
AGUCCUGUGCUACACAUCGUAUGUACCGAAUCGGGGUUUGGGGAGGGGAAAAAGGGGAAAGUAUUAUGUUACGCCGUUCGGAUCUGCACU: 1.71
CAAGUCCUGUGCUACACAUCGUAUGUACCGAAUCGGUUUUUGGUUUUUUUGGUGGAAAGUAUUAUGUUACGCCGUUCGGAUCUGCACUUC: -1.47
UCAAGUCCUGUGCUACACAUCGUAUGUACCGAAUCGGGUUUGGGAGGGAAAGGGAAAGUAUUAUGUUACGCCGUUCGGAUCUGCACUUCC: 2.02
UUCCCAAGAUGGCGGCGGACGUGUCCGUUACUCACCGGCCCCCGCUGAGCCCUAAGUCUGGGGCCGAAGUCGAAGCCGGCGAUGCCGCGG: -2.72
AAGUCGCGUGUCUAGGUGAGUCGCGGUGGGUCCUCGCUUGCAGUUCAGCGACCACGGUGGGUACCGUUUUUGCGAGGAUUGUUUGUCCCC: -1.5
AAGUCCUGUGCUACACAUCGUAUGUACCGAAUCGGUUUUUGGAAAAAAAGGUUUGGAAAGUAUUAUGUUACGCCGUUCGGAUCUGCACUU: -2.22
UUUCACAGAGAAGCAAAUGCUGGCACAAGGAUACCCUGCUUACACGACAUCGUGCGCCUGGCUGGGGUACUCAGAUGACACGUUGAAGCA: -0.982

Sample 4
Target: RNA binding protein fox-1 homolog 2, RRM domain, GST-SBP tag (RBFOX2, Homo sapiens, UniProt O43251-10, residues 100-194)
Method: RNA Bind-n-Seq
Molecule type: RNA
Sample: in vitro
Concentration: 365 nM
Notes: natural RNA segment, single round, ends assumed
Reference: no-protein control
Direction: higher = stronger binding
Endpoint: RBNS enrichment (R)
Shared flanks, not repeated: GGGAGUUCUACAGUCCGACGAUC … UGGAAUUCUCGGGUGCCAA
Construct (chain): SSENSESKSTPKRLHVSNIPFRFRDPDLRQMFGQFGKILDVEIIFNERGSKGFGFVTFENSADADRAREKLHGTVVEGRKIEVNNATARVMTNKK
GCAUUCAGUGGCCUAUCUCCAGAUUGUCUGAUUUCUGAAUGUAAAGUUGUUGUGUUUUUUUUUAAAUAGUAGUUUGUAGUAUUUUAAAGAAAGAACAGAUCGAGUUCUAA: 0.71
AUCACUGCUUGGUGCCUGGCAAGCUGGAGAGGUCAGCCUGCUGCCAGGCAACUGGCUGUCUUUGGGAGGGGUGGCUCUUAAGACUCUACCUCUGAUUGCAUCACUAGGAC: 0.421
AGAACCUGAAAGUGCAUACUGAGUUGAGUGUUCAGGCUGCUGUCCUUGGUCUCUCUGCAGUUCUGGGGACCCAACCAAGAGUCACGUGUCUAGGCCAGUGCUUUACCACU: 0.351
GCAUGUAUUUACUGUUUGACAGUAAACCCGCUCUGCCUUCUCCACGUCCAAGGCUGUGCAUUCGUCUAAUUAGCGUCGUGUAUGUUUUCCUUUUAUUUUUUCCAAUAAAA: 2.08
CACGGGCUGGAGGGGCUGCCCAGGGACCUUGGUCUCGAAGCCAUACGUGGUUGUCUGCUUUCCUAAGGACUCCCAUUUCCAGUAUUAAAGAGAGAAUCAUCAUCAAGGCA: 0.598
GGUUCAGGAAGCACGGAGAUUCUCUCCAACAAAGGUCCAGUUAGGAAACGACGCUGAGAGGAUGACGACAACGUGCAACAGCAGAAAGAUGCUUGCAAGCAGAGUCAGGG: 0.539
CUCUCUGUAUUUUUUCUUGCAUUGACAUUAUAGACAUUGAGGACCUCAUCCAAACAAUUUAAAAAUGAGUGUGAAGGGGGAACAAGUCAAAAUAUUUUUAAAAGAUCUUC: 0.762
UGACAAAAUGACUUUCAUGUUAAGGGGAAAUGCUGUUUAUCUACUCAGACAUGCAUCUGUGAUGUUCAUAGCCUUGUUUCAGUUAUAAUAGUUGUCUUGUUUUUUUCUUA: 1.08

Sample 5
Target: ABI1, truncated, D143A, DHFR fusion (Arabidopsis thaliana)
Method: DHFR PCA, deep sequencing
Sample: yeast
Notes: methotrexate growth selection, single substitutions
Together with: (+)-ABA 200 µM
Reference: wild-type fitted maximum
Direction: higher = stronger binding
Endpoint: relative binding score
Starting sequence: PYL1, truncated, DHFR fusion (Arabidopsis thaliana); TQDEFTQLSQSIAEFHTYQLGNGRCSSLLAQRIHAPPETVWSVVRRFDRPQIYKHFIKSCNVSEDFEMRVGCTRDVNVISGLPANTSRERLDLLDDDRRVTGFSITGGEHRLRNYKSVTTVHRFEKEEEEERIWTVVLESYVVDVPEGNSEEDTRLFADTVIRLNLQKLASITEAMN
A170V: 66.9%
E174N: 84.3%
Q167A: 100%
V70R: 85.1%
S171D: 105%
T86D: 98.6%
T101L: 105%
E89Y: -18.5%
H34P: 84%
R32N: 93%
L82A: 61%
T173H: 54.5%
P50F: 2.78%
F47V: -3.98%
C25R: 21.2%
F56E: 17.2%
A175Y: 90%
V78L: 105%
K168F: 65.9%
I57W: 10.2%
S140F: -0.333%
T6V: 102%

Sample 6
Target: HLF, bZIP domain (human)
Method: DHFR protein complementation
Sample: yeast
Notes: single substitutions, most at no-binding floor
Reference: wild-type JUN-FOS pair
Direction: higher = stronger binding
Endpoint: binding fitness
Starting sequence: JUN, bZIP domain (human); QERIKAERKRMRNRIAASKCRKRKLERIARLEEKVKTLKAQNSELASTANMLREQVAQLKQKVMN; partner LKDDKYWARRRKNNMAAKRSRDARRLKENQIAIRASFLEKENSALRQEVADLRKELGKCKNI
Q55P: -1.51 natural log
K39G: -1.43 natural log
L38F: -1.53 natural log
L45A: -1.5 natural log
L31M: -1.43 natural log
E44P: -1.53 natural log
K36R: -1.37 natural log
Q55K: -1.47 natural log
Q58R: -1.3 natural log
V35G: -1.5 natural log
E44I: -1.49 natural log
V56E: -1.5 natural log
Q55W: -1.42 natural log
M51P: -1.49 natural log
I28C: -1.16 natural log
A46T: -1.18 natural log

For quick reference, copied from above (sample 6):
Q55P: -1.51 natural log
K39G: -1.43 natural log
L38F: -1.53 natural log
L45A: -1.5 natural log
L31M: -1.43 natural log
E44P: -1.53 natural log
K36R: -1.37 natural log
Q55K: -1.47 natural log
Q58R: -1.3 natural log
V35G: -1.5 natural log
E44I: -1.49 natural log
V56E: -1.5 natural log
